Assay results from different studies.
Parts stem from different laboratories: compare values within a part only. Positions count from the first letter of the parent shown.

Study 1
Target: Prothrombin, mature alpha-thrombin (F2, Homo sapiens, UniProt P00734)
Technique: aptamer microarray, sandwich
Molecule type: DNA with 2'F-ANA
Medium: in vitro
Concentration: 200 nM
Notes: whole 15-mer aptamer, many near background
Added: Cy3 exosite-II aptamer, 400 nM
Direction: higher = stronger binding
Sequence: GGTTGGTGTGGTTGG
Modification | mean fluorescence intensity [a.u.]
2'F-ANA at 1 2 4 5 6 7 8 | 61.4
2'F-ANA at 1 3 7 8 10 13 14 15 | 62.6
2'F-ANA at 1 4 6 7 9 10 12 13 | 55.2
2'F-ANA at 1 3 5 6 8 10 11 14 15 | 145
2'F-ANA at 3 4 5 6 7 8 9 12 13 | 122
2'F-ANA at 1 2 4 5 7 10 11 13 | 45.4
2'F-ANA at 1 5 6 8 10 12 13 14 | 48.9
2'F-ANA at 1 2 4 5 7 8 9 14 15 | 46.8
2'F-ANA at 1 2 3 11 12 13 15 | 317
2'F-ANA at 2 8 9 10 11 12 13 14 15 | 91.1
2'F-ANA at 1 3 9 12 14 15 | 117
2'F-ANA at 4 5 6 7 8 14 15 | 46
2'F-ANA at 1 2 3 4 6 7 9 10 11 14 15 | 55.5
2'F-ANA at 1 2 3 4 6 7 8 9 11 14 15 | 63.6
2'F-ANA at 1 2 4 5 6 7 10 11 13 14 | 76
2'F-ANA at 1 2 3 5 6 8 11 12 15 | 527
2'F-ANA at 1 2 4 5 6 7 8 9 12 13 15 | 73.7
2'F-ANA at 3 7 8 9 10 11 13 14 15 | 426
2'F-ANA at 3 5 6 7 9 13 15 | 80.9
2'F-ANA at 3 6 9 10 11 15 | 419
2'F-ANA at 1 2 3 4 7 10 | 55.6
2'F-ANA at 1 5 6 8 9 10 13 15 | 49.6

Study 2
Target: Centromere-binding protein 1, full length, N-terminal tag (CBF1, Saccharomyces cerevisiae, UniProt P17106, residues 1-351)
Sequence of UniProt P17106 (whole entry, looked up): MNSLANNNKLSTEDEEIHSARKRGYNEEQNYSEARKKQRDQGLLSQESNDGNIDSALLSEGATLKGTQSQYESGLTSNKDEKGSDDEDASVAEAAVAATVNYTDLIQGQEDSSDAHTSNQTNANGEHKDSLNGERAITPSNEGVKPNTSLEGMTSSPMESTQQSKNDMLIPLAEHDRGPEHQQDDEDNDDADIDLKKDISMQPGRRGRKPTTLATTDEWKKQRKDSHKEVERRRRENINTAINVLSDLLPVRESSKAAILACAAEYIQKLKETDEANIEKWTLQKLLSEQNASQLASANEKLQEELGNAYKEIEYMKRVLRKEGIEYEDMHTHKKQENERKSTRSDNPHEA
Technique: protein-binding microarray
Molecule type: double-stranded DNA, one strand shown
Medium: in vitro
Concentration: 0.8 µM
Notes: whole 60-bp probe, no competitor
Direction: higher = stronger binding
Constant ends, left off below: … GTCTTGATTCGCTTGACGCTGCTG
Sequence | fluorescence intensity [a.u.]
GAACGCCTGCTACCATGTGAGAGTTGGCGTTAGTAG | 582
GAACGCACTTTGTAACTGATGGCGAAGAGCAAATAG | 513
GAAAAACAAGCGTGTCATGTGAGCTTTTTTGCCTAG | 2230
CTACGAGGCTGCGTTAGCGTCACCTAGAAATCCTTC | 527
CTACCCTTCTCACCCCCCGTGTTACGCAAAGAATTC | 609
CTACTCAAAGTGTATCACGTCCCCGTCAATTTCTTC | 693
GAAAGTGCTAATAATCACATGGTTCGTAGAGGGTAG | 2030
GAATTGTCTTAGATGATCATTCCATTCTTTAGGTAG | 558
GAATTAGTATAAACTCACGTAATTTCAATGAATTAG | 521
GAACAATTTATGTCGAACGTGCTTATGACTCCATAG | 617
GAAAAGTTGTACATTCACGTGGGCCTTATCGCCTAG | 2030
CTAACTCATTTGTTTCGTGCGCTTTCCTATTGCTTC | 499
GAATTTCTACGTAACCACGTTGTTTACGTACTATAG | 693
CTAAGTGTTGATTGAGACGTGTTGTGTTTAAACTTC | 555
GAATTATTAAGTCATCCGCACGTGGAACTCACATAG | 2240
GAATTATACGACTAATAGGTGATGCTCATATTCTAG | 515
CTAATCGAGTAATTTCCGCTGATGTATAATATATTC | 524
TGTACGAAGCTATGTCAGGTGAATATAGTAGTTAGG | 928
GAAGTAATGTACAATGTCGTGGTCATGAGACAATAG | 957

Study 3
Target: CCNB3, cyclin fold, Cln2 fusion (human)
Technique: yeast growth competition, sequencing
Medium: yeast
Notes: weak parent motif
Reference: not given
Direction: higher = stronger binding
Parent: ITGB3BP docking peptide (human); MPVKRSLKLDGLL; partner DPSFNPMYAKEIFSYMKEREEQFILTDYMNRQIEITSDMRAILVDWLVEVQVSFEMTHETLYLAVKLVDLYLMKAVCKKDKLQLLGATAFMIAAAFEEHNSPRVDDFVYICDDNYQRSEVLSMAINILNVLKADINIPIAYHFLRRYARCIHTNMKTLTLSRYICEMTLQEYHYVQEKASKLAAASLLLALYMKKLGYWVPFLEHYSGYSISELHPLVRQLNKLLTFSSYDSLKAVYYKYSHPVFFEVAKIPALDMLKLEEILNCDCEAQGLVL
Substitution | normalised enrichment score
MPVKKSLKLDGLL [R5K] | 0.181
MPVKRSLKADGLL [L9A] | 0.162
MPVKRSLKLDGAL [L12A] | 0.327
MPVKRSAKLDGLL [L7A] | 0.141
APVKRSLKLDGLL [M1A] | -0.0565
MPAKRSLKLDGLL [V3A] | 0.534
MPVKRSLALDGLL [K8A] | 0.362

Other studies, line by line
Substance | target | assay | test system | conditions | scale | endpoint | value
PhoQ, residues 284 288 289 292 302 303 SSTLLI | PhoP, residues 12 14 15 18 19 AQCLL (Escherichia coli, UniProt P23836) | Sort-seq, item: YFP reporter | E. coli | PhoQ-PhoP variant library, added: 10 µM Mg2+ | reference: high Mg2+ state, higher = stronger signaling | fold induction | 5.42

A few entries again (study 1):
Modification | mean fluorescence intensity [a.u.]
2'F-ANA at 1 2 4 5 6 7 10 11 13 14 | 76
2'F-ANA at 1 3 9 12 14 15 | 117
2'F-ANA at 4 5 6 7 8 14 15 | 46
2'F-ANA at 1 2 3 5 6 8 11 12 15 | 527
2'F-ANA at 1 4 6 7 9 10 12 13 | 55.2
2'F-ANA at 1 3 7 8 10 13 14 15 | 62.6
